Results from different studies.
Lines come from different studies, so protocols differ. Several values in a cell are separate wells, animals, samples, runs or records.
Target: Mitogen-activated protein kinase 12 (MAPK12, Homo sapiens, UniProt P53778)

| Structure (SMILES) | assay | setting | how to read | measurement | value |
| --- | --- | --- | --- | --- | --- |
| COCC12C(=O)NC3C4(C(OC)CC1O)C1CC5(O)C(OC)C(O)C(OC(C)=O)(C1C5OC(=O)c1ccccc1)C3(O)C(OC)C24 (stereo not drawn) | kinase activity, inhibitor, ProQinase kinase profiling | 25 µM | baseline: control | remaining activity | 84% and 101% |
| Cc1cccc(O[C@H]2CCC[C@@H](C(C)CNCc3ccncc3)C2)c1 (relative stereo) | enzyme activity, inhibitor | 10 µM | – | inhibition | -1% |
| O=C=[N][Ru-4]123([n]4c5ccc(O)cc5c5c6c(c7cc(F)c[n+]1c7c54)C(=O)NC6=O)[S+]1CC[S+]2CC[S+]3CC1 (stereo not drawn) | enzyme activity | 100 nM, human enzyme, added: 10 µM ATP | baseline: untreated | remaining activity | 109% |
| C=CC(=O)Nc1cccc(-c2cnc3[nH]cc(C(=O)NC(C)(C)C)c3n2)c1 | kinase activity | 0.1 µM | – | inhibition | 4% and 3% |
| CCN1CCN(Cc2ccc(C(=O)Nc3ccc(C)c(NCc4cnc5[nH]ccc5c4OC)c3)cc2C(F)(F)F)CC1 | binding, competition with immobilised ligand | 1 µM | – | remaining binding | 47% |
| COc1cc(Nc2nc(C)cc(-c3cnn4nc(OC)ccc34)n2)cc(C(F)(F)F)c1 | KINOMEscan | 1 µM, p38-gamma | baseline: DMSO | remaining binding | 71% |
| COc1c(OCCCN2CCOCC2)ccc2c1N=C(NC(=O)c1cnc(N)nc1)N1CCN=C21 | kinase activity, inhibitor | 1 µM | baseline: untreated control | remaining activity | 110% |
| COc1c(Cl)cccc1Nc1c(-c2ccncc2C#C[C@@]2(C)CCCN2C(=O)/C=C/CN(C)C)[nH]c2c1C(=O)NCC2 | binding, competition with immobilised ligand | 3 µM | – | remaining binding | 60% |
| Cc1cccc(-c2ccc3nc(NC(=O)C4CCCO4)nn3c2)c1 (stereo not drawn) | enzyme activity, Dundee kinase panel | 10 µM | – | remaining activity | 102% |
| C=CC(=O)N1CCCC(n2c(=O)c3ncccc3n(Cc3ccc(Oc4ccccc4)cc3)c2=O)C1 (stereo not drawn) | cell-free assay, competition with immobilised ligand | 1 µM | – | remaining binding | 100% |
| NC(=O)[C@@H](O)C[C@H]1CCc2sc3ncnc(O[C@H]4CC[C@H](N5CCOCC5)CC4)c3c21 | enzyme activity, inhibitor | 10 µM | – | inhibition | -3% |
| Cc1ccc(C)c(-c2ccc3nc(NC(=O)C4CCCCC4)nn3c2)c1 | enzyme activity, Dundee kinase panel | 10 µM | – | remaining activity | 88% |
| Cc1ccc(-c2c(/C=C(\C#N)C(=O)NC(C)C)n(CCCO)c3ncnc(N)c23)cc1 | cell-free assay, competition with immobilised ligand | 1 µM | – | remaining binding | 100% |
| COc1ccc(NC(=O)Nc2ccc3c(c2)C(=O)N(C(C)CO)CC(C)C(CN(C)Cc2ccc4c(c2)OCO4)O3)cc1 (stereo not drawn) | kinase activity, KinaseProfiler | 0.03 µM, species human | baseline: control | remaining activity | 75% |
| CCN1CCN(Cc2ccc(NC(=O)c3ccc(C)c(NC(=O)c4cncc(-c5cccs5)c4)c3)cc2C(F)(F)F)CC1 | binding, competition with immobilised ligand | 1 µM | – | remaining binding | 28% |
| Cc1cnc2nc1Nc1cccc(c1)COC/C=C/COCc1cc(ccc1OCCN1CCOCC1)N2 | binding, competition with immobilised ligand | 0.1 µM | – | remaining binding | 86% |
| CN1CCN(Cc2ccc(-c3ccc(CO[C@H]4CCC[C@@H]4NC(=O)c4cc(-c5cnn(C)c5)cnc4N)cc3)cc2)CC1 | enzyme activity, inhibitor | 0.1 µM | – | inhibition | 4% |
| CNC(=O)C1CCN(c2cc(C)c(F)cc2NC(=O)c2ccc(-c3cc(O)ccc3C)c(C)c2)CC1 | binding, competition with immobilised ligand | 1 µM | – | remaining binding | 100% |
